Published values collected from several papers.
Numbered parts are unrelated; each lists some results of a single study.
Chain of UniProt P42336 (whole entry, unmodified, looked up): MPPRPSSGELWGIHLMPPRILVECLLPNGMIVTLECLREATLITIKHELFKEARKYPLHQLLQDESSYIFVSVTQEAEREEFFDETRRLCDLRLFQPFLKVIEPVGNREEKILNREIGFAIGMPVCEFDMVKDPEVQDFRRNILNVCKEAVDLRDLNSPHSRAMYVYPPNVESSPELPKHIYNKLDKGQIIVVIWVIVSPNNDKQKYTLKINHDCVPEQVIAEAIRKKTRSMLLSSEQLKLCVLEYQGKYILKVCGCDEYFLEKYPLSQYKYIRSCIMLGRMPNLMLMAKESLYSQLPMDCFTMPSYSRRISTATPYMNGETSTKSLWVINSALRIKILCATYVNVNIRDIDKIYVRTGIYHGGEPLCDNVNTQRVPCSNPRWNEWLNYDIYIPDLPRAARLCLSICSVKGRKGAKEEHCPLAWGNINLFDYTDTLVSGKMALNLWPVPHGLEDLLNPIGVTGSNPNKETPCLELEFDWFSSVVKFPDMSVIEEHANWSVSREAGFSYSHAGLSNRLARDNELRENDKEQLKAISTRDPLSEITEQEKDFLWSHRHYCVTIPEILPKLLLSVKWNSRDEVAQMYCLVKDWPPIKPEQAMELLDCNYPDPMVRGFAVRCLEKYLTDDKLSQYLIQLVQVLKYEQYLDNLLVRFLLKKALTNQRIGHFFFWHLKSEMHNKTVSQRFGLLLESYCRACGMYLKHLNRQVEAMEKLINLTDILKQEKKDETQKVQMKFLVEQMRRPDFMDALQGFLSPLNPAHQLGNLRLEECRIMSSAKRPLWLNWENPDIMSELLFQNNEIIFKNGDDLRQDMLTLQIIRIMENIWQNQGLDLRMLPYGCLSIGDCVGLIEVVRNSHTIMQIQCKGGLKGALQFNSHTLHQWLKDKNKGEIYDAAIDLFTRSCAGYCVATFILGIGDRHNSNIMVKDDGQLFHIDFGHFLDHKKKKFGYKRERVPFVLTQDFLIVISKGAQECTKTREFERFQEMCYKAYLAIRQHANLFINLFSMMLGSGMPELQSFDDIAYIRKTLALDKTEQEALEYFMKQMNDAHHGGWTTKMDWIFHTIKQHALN
Chain of UniProt P53667 (whole entry, looked up): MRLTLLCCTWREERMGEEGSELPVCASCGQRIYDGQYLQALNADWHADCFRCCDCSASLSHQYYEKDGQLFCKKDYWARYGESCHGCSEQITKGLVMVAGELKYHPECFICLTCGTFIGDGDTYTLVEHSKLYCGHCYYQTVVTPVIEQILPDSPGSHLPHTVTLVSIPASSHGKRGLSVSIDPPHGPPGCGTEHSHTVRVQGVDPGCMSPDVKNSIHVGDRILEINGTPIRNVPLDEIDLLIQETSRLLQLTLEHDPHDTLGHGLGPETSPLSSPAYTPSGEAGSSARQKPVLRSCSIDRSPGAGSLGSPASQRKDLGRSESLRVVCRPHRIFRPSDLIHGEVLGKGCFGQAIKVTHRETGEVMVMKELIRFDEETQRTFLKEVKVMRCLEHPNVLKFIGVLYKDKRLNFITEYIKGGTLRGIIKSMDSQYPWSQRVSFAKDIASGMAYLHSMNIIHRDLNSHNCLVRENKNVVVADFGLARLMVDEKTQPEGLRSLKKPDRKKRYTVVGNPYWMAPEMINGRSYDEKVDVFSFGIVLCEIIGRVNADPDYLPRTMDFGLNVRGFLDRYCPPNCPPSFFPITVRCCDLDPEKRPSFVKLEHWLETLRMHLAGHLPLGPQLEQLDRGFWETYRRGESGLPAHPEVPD
Chain of UniProt Q12866 (whole entry, looked up): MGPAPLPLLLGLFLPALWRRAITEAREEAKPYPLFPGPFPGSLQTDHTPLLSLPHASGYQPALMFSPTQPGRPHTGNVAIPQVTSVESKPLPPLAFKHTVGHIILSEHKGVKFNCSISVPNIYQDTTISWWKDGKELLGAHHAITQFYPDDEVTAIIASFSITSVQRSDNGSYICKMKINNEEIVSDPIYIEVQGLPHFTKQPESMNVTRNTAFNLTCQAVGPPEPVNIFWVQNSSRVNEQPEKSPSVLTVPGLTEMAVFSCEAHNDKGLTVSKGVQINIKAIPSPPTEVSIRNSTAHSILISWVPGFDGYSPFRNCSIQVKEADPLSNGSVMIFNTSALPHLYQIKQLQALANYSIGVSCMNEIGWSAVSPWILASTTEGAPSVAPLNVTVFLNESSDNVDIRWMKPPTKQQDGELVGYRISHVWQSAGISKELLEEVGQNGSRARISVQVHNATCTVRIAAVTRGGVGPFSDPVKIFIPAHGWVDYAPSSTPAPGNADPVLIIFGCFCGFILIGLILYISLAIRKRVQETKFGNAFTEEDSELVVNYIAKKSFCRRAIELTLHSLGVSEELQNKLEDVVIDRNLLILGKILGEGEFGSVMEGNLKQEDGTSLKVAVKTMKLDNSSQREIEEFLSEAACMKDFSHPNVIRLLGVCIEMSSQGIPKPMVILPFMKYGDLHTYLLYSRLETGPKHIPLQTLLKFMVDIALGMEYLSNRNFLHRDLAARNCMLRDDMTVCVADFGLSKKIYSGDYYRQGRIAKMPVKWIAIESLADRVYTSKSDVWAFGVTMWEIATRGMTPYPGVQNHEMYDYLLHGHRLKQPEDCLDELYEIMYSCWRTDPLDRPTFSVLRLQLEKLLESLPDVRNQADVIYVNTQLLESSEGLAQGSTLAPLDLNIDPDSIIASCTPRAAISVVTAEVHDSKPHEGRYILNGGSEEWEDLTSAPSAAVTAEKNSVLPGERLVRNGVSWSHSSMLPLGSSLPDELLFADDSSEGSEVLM
Chain of UniProt P11309 (whole entry, looked up): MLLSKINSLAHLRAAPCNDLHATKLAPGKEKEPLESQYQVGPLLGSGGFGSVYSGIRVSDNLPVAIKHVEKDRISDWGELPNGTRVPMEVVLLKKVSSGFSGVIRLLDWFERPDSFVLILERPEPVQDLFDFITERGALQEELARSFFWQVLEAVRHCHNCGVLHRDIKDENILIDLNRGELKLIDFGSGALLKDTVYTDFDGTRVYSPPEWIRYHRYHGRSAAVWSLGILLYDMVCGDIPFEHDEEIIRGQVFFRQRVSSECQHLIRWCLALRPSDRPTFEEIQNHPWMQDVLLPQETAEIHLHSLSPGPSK
Chain of UniProt O00141 (whole entry, looked up): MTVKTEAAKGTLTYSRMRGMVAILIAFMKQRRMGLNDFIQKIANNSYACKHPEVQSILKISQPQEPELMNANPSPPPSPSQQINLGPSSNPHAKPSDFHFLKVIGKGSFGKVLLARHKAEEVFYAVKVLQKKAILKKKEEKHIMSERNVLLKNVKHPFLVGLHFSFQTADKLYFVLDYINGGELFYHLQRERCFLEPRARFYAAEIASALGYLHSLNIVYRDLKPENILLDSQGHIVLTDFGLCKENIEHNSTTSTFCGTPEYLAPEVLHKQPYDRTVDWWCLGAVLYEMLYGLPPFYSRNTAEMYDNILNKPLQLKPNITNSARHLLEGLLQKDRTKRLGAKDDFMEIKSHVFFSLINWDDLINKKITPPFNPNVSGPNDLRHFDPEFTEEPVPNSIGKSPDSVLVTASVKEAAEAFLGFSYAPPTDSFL

Set 1
Target: Beta-1 adrenergic receptor (ADRB1, Homo sapiens, UniProt P08588)
Chain of UniProt P08588 (whole entry, looked up): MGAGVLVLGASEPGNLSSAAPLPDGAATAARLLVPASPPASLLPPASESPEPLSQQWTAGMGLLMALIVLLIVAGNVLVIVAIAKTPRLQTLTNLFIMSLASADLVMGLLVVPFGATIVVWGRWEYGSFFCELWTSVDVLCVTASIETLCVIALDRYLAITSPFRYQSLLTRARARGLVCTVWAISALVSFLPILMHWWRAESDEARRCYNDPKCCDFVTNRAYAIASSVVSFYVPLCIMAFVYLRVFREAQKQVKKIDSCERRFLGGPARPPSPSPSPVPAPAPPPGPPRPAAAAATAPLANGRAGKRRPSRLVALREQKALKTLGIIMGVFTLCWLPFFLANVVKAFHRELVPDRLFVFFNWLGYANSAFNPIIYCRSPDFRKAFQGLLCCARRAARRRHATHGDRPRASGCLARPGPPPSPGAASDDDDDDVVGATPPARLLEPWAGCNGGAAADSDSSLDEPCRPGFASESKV
Mode: antagonist
With `O=C1COc2ccc(-c3ccsc3)nc2CN1` the IC50 was ≥ 100 µM.
`COc1ccccc1N1CCN([S+](=O)([O-])c2ccc(C)cc2)CC1` has an IC50 of ≥ 100 µM.
With `Cn1cc(-c2cnc(NC(=O)Cc3ccc(F)cc3)c3c2CCO3)cn1` the IC50 was ≥ 100 µM.
`O=C1NCC2(CCN(Cc3ccsc3)CC2)Oc2ccccc21` has an IC50 of ≥ 100 µM.
`CC(C)c1ccc(Nc2n[nH]c(C(O)C3CC3)n2)cc1` (stereo not shown) has an IC50 of ≥ 100 µM.
`O=c1c(Cl)c(NC(c2ccccc2)c2cccs2)cnn1-c1ccc(C(F)(F)F)cn1` (stereo not shown) gave an IC50 of ≥ 100 µM.
The IC50 of `O=C1CCN(Cc2ccccc2OCC(O)CN2CCCCC2)CCN1` (stereo not shown) is reported as ≥ 100 µM.
`CCc1ccc([S+](=O)([O-])N2CCN(c3ccccc3OC)CC2)cc1` gave an IC50 of ≥ 100 µM.
With `N#Cc1cc(NC(=O)Nc2nnc(-c3ccncc3)s2)ccc1-c1cn[nH]c1` the IC50 was ≥ 100 µM.
For `COc1cc(CNCCCO)ccc1OCC(O)CN1CCSCC1` (stereo not shown), the IC50 was ≥ 100 µM.
For `Cc1c(CN2CCC(Nc3ncnc4sc(CC(F)(F)F)cc34)CC2)ccc2c1cc(C#N)n2Cc1cn[nH]c1`, the IC50 was ≥ 100 µM.
With `CN(Cc1ccc(F)cc1)c1ccc2ncc(Nc3cccc(O)c3)n2n1` the IC50 was ≥ 100 µM.
With `Cc1noc2c(-c3cnn(C)c3)cc(-c3cccc(C(F)(F)F)c3)nc12` the IC50 was ≥ 100 µM.
The IC50 of `CCn1ncc(NC(=O)Cn2ncc3cc(-c4ccc(N(C)C)cc4)ccc32)n1` is reported as ≥ 100 µM.
The IC50 of `Cc1noc2c(-c3cn[nH]c3)cc(-c3cccc(C(F)(F)F)c3)nc12` is reported as 39.8 µM.

Set 2
Target: Ephrin type-A receptor 8 (EPHA8, Homo sapiens, UniProt P29322)
Chain of UniProt P29322 (whole entry, looked up): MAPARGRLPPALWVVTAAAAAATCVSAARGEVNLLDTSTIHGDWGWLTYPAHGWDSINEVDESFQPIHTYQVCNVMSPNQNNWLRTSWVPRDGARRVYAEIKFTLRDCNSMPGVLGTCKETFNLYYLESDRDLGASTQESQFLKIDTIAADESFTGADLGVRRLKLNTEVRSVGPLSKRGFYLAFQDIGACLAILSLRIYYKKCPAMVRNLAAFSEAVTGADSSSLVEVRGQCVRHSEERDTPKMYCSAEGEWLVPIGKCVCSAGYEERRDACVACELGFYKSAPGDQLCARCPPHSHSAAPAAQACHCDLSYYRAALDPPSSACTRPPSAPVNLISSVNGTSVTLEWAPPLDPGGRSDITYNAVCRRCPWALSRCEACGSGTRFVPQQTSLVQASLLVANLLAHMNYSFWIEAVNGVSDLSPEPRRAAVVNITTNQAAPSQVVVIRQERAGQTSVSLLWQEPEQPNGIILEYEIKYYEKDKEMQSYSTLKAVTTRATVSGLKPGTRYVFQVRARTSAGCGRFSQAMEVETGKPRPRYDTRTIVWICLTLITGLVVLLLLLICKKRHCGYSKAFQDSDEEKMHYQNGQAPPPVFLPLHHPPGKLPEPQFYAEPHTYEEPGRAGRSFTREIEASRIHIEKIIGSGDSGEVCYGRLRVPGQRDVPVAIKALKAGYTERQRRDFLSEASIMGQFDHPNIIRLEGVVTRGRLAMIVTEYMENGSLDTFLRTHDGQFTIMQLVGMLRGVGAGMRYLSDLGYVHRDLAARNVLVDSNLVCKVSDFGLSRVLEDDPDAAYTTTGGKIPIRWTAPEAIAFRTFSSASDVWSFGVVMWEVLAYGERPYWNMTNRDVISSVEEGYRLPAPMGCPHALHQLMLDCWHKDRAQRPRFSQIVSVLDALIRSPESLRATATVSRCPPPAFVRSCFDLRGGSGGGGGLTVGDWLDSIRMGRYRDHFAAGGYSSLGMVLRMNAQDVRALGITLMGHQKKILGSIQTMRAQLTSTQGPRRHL
Effect on: enzyme activity
Mode: inhibitor
Tested at: 0.5 µM
Baseline: control
`COc1cc2ncnc(Nc3ccc(OCc4ccccc4)cc3)c2cc1OC` gave a remaining activity of 102%.
With `COc1cc2ncc(-c3ccccc3)nc2cc1OC` the remaining activity was 93.1%.
For `Nc1[nH]nc2nnc(-c3c(-c4ccccc4)nn4ccccc34)cc12`, the remaining activity was 100%.
The remaining activity of `CCOc1cc2ncnc(Nc3cccc(Br)c3)c2cc1OCC` is reported as 87.3%.
The remaining activity of `CC(=O)O/N=C1/C(c2c(O)[nH]c3cc(Br)ccc23)=Nc2ccccc21` is reported as 96.3%.
`Cc1ccc(NC(=O)c2ccc(CN3CCN(C)CC3)cc2)cc1Nc1nccc(-c2cccnc2)n1` has a remaining activity of 94.7%.
`O=c1cc(N2CCOCC2)oc2c1ccc1ccccc12` has a remaining activity of 101%.
`Cn1cnc2cc3c(Nc4cccc(Br)c4)ncnc3cc21` gave a remaining activity of 85.4%.
With `O=C1NC(=O)/C(=C/c2ccc3nccnc3c2)S1` the remaining activity was 94.2%.
With `CS(=O)(=O)CCNCc1ccc(-c2ccc3ncnc(Nc4ccc(OCc5cccc(F)c5)c(Cl)c4)c3c2)o1` the remaining activity was 99.5%.
`CN(C)CCCn1cc(C2=C(c3c[nH]c4ccccc34)C(=O)NC2=O)c2ccccc21` gave a remaining activity of 102%.
For `COc1ccc(Cl)cc1NC(=O)Nc1cc(C)nc2ccccc12`, the remaining activity was 97.8%.
The remaining activity of `CCN1/C(=C/C(C)=O)Sc2ccc(OC)cc21` is reported as 98.5%.
With `O=C(Nc1ccc(Cl)cc1)c1ccccc1NCc1ccncc1` the remaining activity was 87.6%.
`Cn1cc(/C=C2\C(=O)Nc3ccc(S(N)(=O)=O)cc32)c2ccccc21` has a remaining activity of 83.4%.
`Cc1nc(Nc2ncc(C(=O)Nc3c(C)cccc3Cl)s2)cc(N2CCN(CCO)CC2)n1` has a remaining activity of 4.13%.
`COc1cc2ncnc(N3CCN(C(=O)Nc4ccc(Oc5ccccc5)cc4)CC3)c2cc1OC` gave a remaining activity of 92.5%.
The remaining activity of `CC(C)[C@H](CO)Nc1nc(Nc2cccc(Cl)c2)c2ncn(C(C)C)c2n1` is reported as 102%.
The remaining activity of `CC(C)c1nn(-c2c(Cl)cccc2Cl)c2nc(Cc3ccc(OCCO)cc3)[nH]c(=O)c12` is reported as 102%.
With `CCC(=O)Nc1ccc2ncnc(Nc3cccc(Br)c3)c2c1` the remaining activity was 96.6%.
`COc1ccc(-c2cnc3c(-c4ccsc4)cnn3c2)cc1` has a remaining activity of 90.3%.
`C[S+]([O-])c1ccc(-c2nc(-c3ccncc3)c(-c3ccc(F)cc3)[nH]2)cc1` (stereo not shown) gave a remaining activity of 101%.

Set 3
SMILES: C[C@@H]1CN(c2cc(-c3nn(C)c4ccc(OC5(C)CC5)cc34)ncn2)C[C@H](C)O1
Effect on: cell-free assay
Method: competition with immobilised ligand
Tested at: 1 µM
For Phosphatidylinositol 4,5-bisphosphate 3-kinase catalytic subunit alpha isoform (PIK3CA, Homo sapiens, UniProt P42336, H1047L): remaining binding read 83%.
The remaining binding was 100% (Phosphatidylinositol 4-phosphate 5-kinase type-1 alpha (PIP5K1A, Homo sapiens, UniProt Q99755)).
Mitotic checkpoint serine/threonine-protein kinase BUB1 (BUB1, Homo sapiens, UniProt O43683) — remaining binding: 89%.
For Ankyrin repeat and protein kinase domain-containing protein 1 (ANKK1, Homo sapiens, UniProt Q8NFD2): remaining binding read 67%.
Phosphatidylinositol 4,5-bisphosphate 3-kinase catalytic subunit alpha isoform (PIK3CA, Homo sapiens, UniProt P42336, E545A) — remaining binding: 100%.
For Serine/threonine-protein kinase Sgk1 (SGK1, Homo sapiens, UniProt O00141): remaining binding read 47%.
Protein-tyrosine kinase 6 (PTK6, Homo sapiens, UniProt Q13882) — remaining binding: 92%.
It gave 90% for remaining binding (Receptor-type tyrosine-protein kinase FLT3 (FLT3, Homo sapiens, UniProt P36888, R834Q)).
Mitogen-activated protein kinase 4 (MAPK4, Homo sapiens, UniProt P31152) — remaining binding: 93%.
LIM domain kinase 1 (LIMK1, Homo sapiens, UniProt P53667) — remaining binding: 95%.
It gave 100% for remaining binding (Mitogen-activated protein kinase kinase kinase kinase 1 (MAP4K1, Homo sapiens, UniProt Q92918)).
The remaining binding was 100% (Phosphatidylinositol 4,5-bisphosphate 3-kinase catalytic subunit beta isoform (PIK3CB, Homo sapiens, UniProt P42338)).
Serine/threonine-protein kinase pim-1 (PIM1, Homo sapiens, UniProt P11309) — remaining binding: 77%.
For Tyrosine-protein kinase Mer (MERTK, Homo sapiens, UniProt Q12866): remaining binding read 83%.

Further values, each from its own experiment
For `CC(C)n1cnc(-c2ccc(F)cc2)c1-c1ncc(C(=O)Nc2ccc(N3CCN(C)CC3)cc2)[nH]1`, “median hospitalized days” read 19 days (idiopathic pulmonary fibrosis patients; 60 mg once daily, acute exacerbation hospitalization).
